Measured values from different studies.
Every numbered part comes from another study and shows a few of its results, in no order. Changes are numbered by the printed parent chain.

Sample 1
Target: RNA binding protein fox-1 homolog 2, RRM domain, GST-SBP tag (RBFOX2, Homo sapiens, UniProt O43251-10, residues 100-194)
Technique: RNA Bind-n-Seq
Form: RNA
Matrix: in vitro
Tested at: 365 nM
Setting: natural RNA segment, single round, ends assumed
Baseline: no-protein control
Direction: higher = stronger binding
Endpoint: RBNS enrichment (R)
Residues (chain): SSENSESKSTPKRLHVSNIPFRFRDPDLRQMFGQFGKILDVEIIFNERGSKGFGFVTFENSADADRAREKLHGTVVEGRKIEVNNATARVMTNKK
Sequence = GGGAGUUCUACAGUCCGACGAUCCCACCAGCCGUUCCUGAUCUCAGGAGCCUUGAAGGGCUGGGCUCUUGCCUUCCUGGAGUAAAUAUUGGCACAGAUUUCAUUUGAGAGAACUCAGCCCCCUGGUCUAAGCUUGGAAUUCUCGGGUGCCAA; result = 0.491
Sequence = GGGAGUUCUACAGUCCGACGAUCAGCUGGGCCCAGUUUGGCCAUGCCUGCUGGCACAGACGCCUUAACUGUGUGGAUGACUGUGUGACUGGGAGCCUGGACCGGCUGACAGGCCAUGAGCUACCCACUGGCAUUGGAAUUCUCGGGUGCCAA; result = 1.77
Sequence = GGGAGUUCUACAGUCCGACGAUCUUUAUUUAACCCUGGACUCCGUUUACACAGACAAAGUGACAUCAGAAGGCUGAGCACUUAUCUGGAUCAUUUGGUCAGUUUGGUAAUUCCUGCUCCACACCCCUAUUUUCUGGAAUUCUCGGGUGCCAA; result = 1.28
Sequence = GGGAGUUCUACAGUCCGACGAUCUUUUCUGGGUGGUGGUGGCAAGGGUCUAUGUCAGGGUUCAAGUUACUAAAGGUUUUACUGUCAUAAUUUAAAGGGGACUCUUCACGACCCGUCACAAUAAACCAUUCUCAUGGAAUUCUCGGGUGCCAA; result = 0.373
Sequence = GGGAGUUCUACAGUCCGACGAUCAAUGCCUAGGUGAGCCAGUGGUUCUCAAAGUAGGGUUCCCCAGGCACUGUCAGAAAUACAGUCAUACCCCAGGUUAAAUCUCGAAGCAGAGAUUUGGGGGCUUCAUUAACUGGAAUUCUCGGGUGCCAA; result = 0.32
Sequence = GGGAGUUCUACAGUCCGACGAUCGAAUAUGUGAAUAACUUGACUUGCGUUGAUCUUUUUACAUAUUUAAUAAAAAAACUAUACGUUAAAAUCUGUCUGGACUUAUUCUUACGUUCUUAUCUGAGCAGUUAUCUUGGAAUUCUCGGGUGCCAA; result = 0.299
Sequence = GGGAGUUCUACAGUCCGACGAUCAGCGAGUCCGGAUUUAAGGAGGCAGCCUUGUUCCAGAAUGUCCUGAGACAGAGAUCGUGAAAGAAGAAGUCGUGAGCCUGCGGUCCAGUCAGUCCAGCUCGGGACCGAUGUGGAAUUCUCGGGUGCCAA; result = 0.427
Sequence = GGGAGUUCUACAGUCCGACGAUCAGACAUUUUUAUUUAGUUGAAAAAUCUAGUUUUUUUUGUAAACUGUAUCAAAUCUGUAUAUGUUGUAAUAAAACUUAUGCUAGUUUAUUGGAAGUGUUCAAGAAAUAAAAUGGAAUUCUCGGGUGCCAA; result = 0.853

Sample 2
Target: CCNB1, cyclin fold, Cln2 fusion (human)
Technique: yeast growth competition, sequencing
Matrix: yeast
Setting: strong parent motif
Baseline: not given
Direction: higher = stronger binding
Endpoint: normalised enrichment score
Starting sequence: PKN2 docking peptide (human); VSAVRKLDFSDTM
Variant = VSAVRKLDVSDTM [F9V]; result = 0.523
Variant = VSAVRKLDFSDVM [T12V]; result = 3.23
Variant = VSAVRKLDFSDGM [T12G]; result = 3.62
Variant = VSAVAKLDFSDTM [R5A]; result = 1.56
Variant = VSAARKLDFSDTM [V4A]; result = 1.14
Variant = VSAVFKLDFSDTM [R5F]; result = 0.649
Variant = VSAVRKLDFSATM [D11A]; result = 2.91
Variant = VSAVRKLDFYDTM [S10Y]; result = 3.4
Variant = VSAVRWLDFSDTM [K6W]; result = 1.28
Variant = VSAYRKLDFSDTM [V4Y]; result = 0.942
Variant = VSAVRKADFSDTM [L7A]; result = 0.364
Variant = VPAVRKLDFSDTM [S2P]; result = 2.42
Variant = VSAVRTLDFSDTM [K6T]; result = 1.35
Variant = VSAVRKQDFSDTM [L7Q]; result = 0.179
Variant = VSAVRPLDFSDTM [K6P]; result = -0.338

Sample 3
Target: Sal-like protein 4, full length isoform A (SALL4, Homo sapiens, UniProt Q9UJQ4, residues 1-1053)
UniProt Q9UJQ4, sequence (whole entry, looked up): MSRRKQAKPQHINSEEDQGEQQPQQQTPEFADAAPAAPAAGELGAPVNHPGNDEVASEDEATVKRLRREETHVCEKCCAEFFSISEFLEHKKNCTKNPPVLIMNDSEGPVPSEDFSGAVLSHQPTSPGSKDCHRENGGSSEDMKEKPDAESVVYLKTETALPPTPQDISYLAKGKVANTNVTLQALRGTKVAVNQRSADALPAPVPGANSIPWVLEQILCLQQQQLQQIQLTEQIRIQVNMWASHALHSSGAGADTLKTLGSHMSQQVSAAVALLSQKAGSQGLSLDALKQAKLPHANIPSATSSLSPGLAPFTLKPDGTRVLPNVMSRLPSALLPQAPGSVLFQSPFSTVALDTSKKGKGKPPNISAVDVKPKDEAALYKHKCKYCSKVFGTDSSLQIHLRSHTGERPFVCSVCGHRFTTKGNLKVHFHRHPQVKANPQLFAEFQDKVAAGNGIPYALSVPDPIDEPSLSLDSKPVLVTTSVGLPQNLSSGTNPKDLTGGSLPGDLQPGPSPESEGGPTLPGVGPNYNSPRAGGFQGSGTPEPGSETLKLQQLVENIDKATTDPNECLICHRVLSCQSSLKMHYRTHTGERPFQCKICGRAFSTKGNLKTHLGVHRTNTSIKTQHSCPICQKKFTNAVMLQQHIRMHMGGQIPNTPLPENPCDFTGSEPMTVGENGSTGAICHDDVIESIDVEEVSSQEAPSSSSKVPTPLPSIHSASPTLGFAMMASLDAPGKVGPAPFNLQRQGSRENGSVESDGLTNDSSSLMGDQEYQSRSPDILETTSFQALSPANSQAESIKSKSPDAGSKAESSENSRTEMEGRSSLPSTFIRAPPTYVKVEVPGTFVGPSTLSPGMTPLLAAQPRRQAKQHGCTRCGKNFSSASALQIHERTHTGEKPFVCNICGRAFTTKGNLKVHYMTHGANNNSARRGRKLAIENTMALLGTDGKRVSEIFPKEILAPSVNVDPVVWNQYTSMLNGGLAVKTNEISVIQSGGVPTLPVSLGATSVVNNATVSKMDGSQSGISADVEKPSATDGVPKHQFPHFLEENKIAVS
Technique: universal PBM
Form: double-stranded DNA, one strand shown
Matrix: in vitro
Tested at: 600 nM
Setting: 8-mer, flanks averaged, mean of replicates
Direction: higher = stronger binding
Endpoint: E-score
Sequence = ACTTTGAT; result = 0.0779
Sequence = ATGATCGC; result = 0.0881
Sequence = GGGGCCCA; result = -0.398
Sequence = ACTTAGAC; result = 0.132
Sequence = CTGCACCC; result = -0.275
Sequence = AGGGCTAG; result = -0.103
Sequence = GATAGCGA; result = 0.0336
Sequence = ATTTAGCC; result = 0.0552
Sequence = CTCCTATC; result = -0.0469
Sequence = AGATTACA; result = 0.178
Sequence = ACACCACG; result = -0.204
Sequence = CACATCAC; result = 0.042
Sequence = ACTGGGAT; result = 0.0163
Sequence = AAATAAAT; result = 0.359
Sequence = ACATCCGA; result = -0.181
Sequence = AATAGACT; result = 0.234
Sequence = AACTGTCG; result = 0.0311

Sample 4
Target: RING finger protein unkempt homolog, zinc fingers 1-6, GST-SBP tag (UNK, Homo sapiens, UniProt Q9C0B0, residues 30-357)
UniProt Q9C0B0, sequence (30-357, looked up): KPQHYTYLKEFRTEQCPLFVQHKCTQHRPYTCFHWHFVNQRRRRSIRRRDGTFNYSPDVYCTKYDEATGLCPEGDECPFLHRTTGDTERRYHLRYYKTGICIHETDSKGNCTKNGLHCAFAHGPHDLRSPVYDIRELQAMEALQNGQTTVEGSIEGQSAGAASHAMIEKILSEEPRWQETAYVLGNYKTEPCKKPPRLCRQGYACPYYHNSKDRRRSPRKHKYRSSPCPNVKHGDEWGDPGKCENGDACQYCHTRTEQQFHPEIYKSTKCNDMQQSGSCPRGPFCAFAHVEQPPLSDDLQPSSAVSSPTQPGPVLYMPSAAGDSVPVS
Technique: RNA Bind-n-Seq
Form: RNA
Matrix: in vitro
Tested at: not given
Setting: RNA with constant flanks, ends assumed
Baseline: input RNA pool
Direction: higher = stronger binding
Endpoint: bound/input enrichment
Sequence = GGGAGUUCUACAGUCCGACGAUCUUAAUAGGCUUAAUAAUUGUUGGCAAGGAUCCUUUUGCUUUCUUUGGCAUGCAAGCUCCCCGCAUCUGGCAGUGGGGCCAAGAAAAUAAGGUUUAUGCAUGUAUGAUGGUUUUCUUCUUGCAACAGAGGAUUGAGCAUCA; result = 0.448 ratio
Sequence = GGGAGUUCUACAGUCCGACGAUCACGCAGGAAGAAGUGUCUUCAGAAGAUGAAGAUGAAGAGAUGCCUGAGGAUACAGAAGACCCCGAUCACUAUGAAAUGAAAGAGGAAGAGCCAGCCGAGGGCAAGAAGUCUGAAGAUGAUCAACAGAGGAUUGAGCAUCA; result = 0.148 ratio
Sequence = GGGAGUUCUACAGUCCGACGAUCAUAUCUUAUUGCCAUAAACUCCAUGUGGUUCACAGAGACUUAAAACCAGAGAAUGCCGUCUUCUUUGAAAAACAAGGUCUUGUAAAGUUGACAGACUUUGGGUUCAGCAACAAAUUUCAACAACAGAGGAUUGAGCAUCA; result = 0.124 ratio
Sequence = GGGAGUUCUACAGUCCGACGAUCAAUCAGUCAAAAACGACACCUUUUAAAGAUUGCAAAGUAUUGAAACAAAGACCAAGAUUUGCCGCUCUGAAGAAACAACCAUCCUAUAUUGGAGGACAUGAGGGCUUAGAACUGAGAGACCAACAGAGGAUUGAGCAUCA; result = 0.646 ratio
Sequence = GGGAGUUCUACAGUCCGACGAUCCAUUUGAUGUAUGCGGUGAGGGAGGAAGUGGAAGUUCUGAAGGAGCAGAUCAAAGAACUAACCGAGAAAAACUCCCAGCUGGAGCAGGAGAACAAUCUGCUGAAGACGCUGGCCAGUCCGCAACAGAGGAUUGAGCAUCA; result = 0.154 ratio
Sequence = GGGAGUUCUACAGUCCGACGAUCAGCAAUGAAAAAGCAGCCCUUCUCCCAGCCCCCUUUUCACUAGGAGACACAAACAUUACAACCGAAGAGCAAUUAAACUCAAUAAAUUUAUCUUUUCAGGAUGAUCCAGAUUCCAGUACCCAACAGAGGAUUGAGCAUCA; result = 2.3 ratio
Sequence = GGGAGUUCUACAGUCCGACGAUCGGGAAAAACAGCCUCUCCGUACUUUCACCAAAAAUUGGAAAUCUACUAUUUCUUUCCUACUCCGACAUCAAAGGCAAUCACUUUGAAGUCCUCCCUCCCGAGCUGGGAGACUGCCGGGCUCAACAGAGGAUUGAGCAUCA; result = 0.328 ratio
Sequence = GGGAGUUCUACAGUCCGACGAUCGCAAUGGCUGCGGCUGCAGCAGCUUCUCACCUGAACCUGGAUGCCCUCCGGGAAGUGCCCGAAUGUCCCAUCUGCAUGGAGUCCUUCACUGAAGAGCAGCUGCGACCCAAGCUGCUGCACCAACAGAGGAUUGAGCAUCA; result = 0.08 ratio

Excerpt of the above (sample 4):
Sequence = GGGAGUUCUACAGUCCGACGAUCAAUCAGUCAAAAACGACACCUUUUAAAGAUUGCAAAGUAUUGAAACAAAGACCAAGAUUUGCCGCUCUGAAGAAACAACCAUCCUAUAUUGGAGGACAUGAGGGCUUAGAACUGAGAGACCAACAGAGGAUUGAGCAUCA; result = 0.646 ratio
Sequence = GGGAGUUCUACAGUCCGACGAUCCAUUUGAUGUAUGCGGUGAGGGAGGAAGUGGAAGUUCUGAAGGAGCAGAUCAAAGAACUAACCGAGAAAAACUCCCAGCUGGAGCAGGAGAACAAUCUGCUGAAGACGCUGGCCAGUCCGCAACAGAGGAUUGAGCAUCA; result = 0.154 ratio
Sequence = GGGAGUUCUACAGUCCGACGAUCAGCAAUGAAAAAGCAGCCCUUCUCCCAGCCCCCUUUUCACUAGGAGACACAAACAUUACAACCGAAGAGCAAUUAAACUCAAUAAAUUUAUCUUUUCAGGAUGAUCCAGAUUCCAGUACCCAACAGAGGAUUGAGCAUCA; result = 2.3 ratio
